Literature values, collected from citations in different studies.
Each line is one published result; not all experiments were run side by side. “And” joins repeats or separate records; there may be more than shown.
B1: CCL1; sequence looked up; chain KSMQVPFSRCCFSFAEQEIPLRAILCYRNTSSICSNEGLIFKLKRGKEACALDTVGWVQRHRKMLRHCPSKRK
UniProt Q96P20, sequence (whole entry, looked up): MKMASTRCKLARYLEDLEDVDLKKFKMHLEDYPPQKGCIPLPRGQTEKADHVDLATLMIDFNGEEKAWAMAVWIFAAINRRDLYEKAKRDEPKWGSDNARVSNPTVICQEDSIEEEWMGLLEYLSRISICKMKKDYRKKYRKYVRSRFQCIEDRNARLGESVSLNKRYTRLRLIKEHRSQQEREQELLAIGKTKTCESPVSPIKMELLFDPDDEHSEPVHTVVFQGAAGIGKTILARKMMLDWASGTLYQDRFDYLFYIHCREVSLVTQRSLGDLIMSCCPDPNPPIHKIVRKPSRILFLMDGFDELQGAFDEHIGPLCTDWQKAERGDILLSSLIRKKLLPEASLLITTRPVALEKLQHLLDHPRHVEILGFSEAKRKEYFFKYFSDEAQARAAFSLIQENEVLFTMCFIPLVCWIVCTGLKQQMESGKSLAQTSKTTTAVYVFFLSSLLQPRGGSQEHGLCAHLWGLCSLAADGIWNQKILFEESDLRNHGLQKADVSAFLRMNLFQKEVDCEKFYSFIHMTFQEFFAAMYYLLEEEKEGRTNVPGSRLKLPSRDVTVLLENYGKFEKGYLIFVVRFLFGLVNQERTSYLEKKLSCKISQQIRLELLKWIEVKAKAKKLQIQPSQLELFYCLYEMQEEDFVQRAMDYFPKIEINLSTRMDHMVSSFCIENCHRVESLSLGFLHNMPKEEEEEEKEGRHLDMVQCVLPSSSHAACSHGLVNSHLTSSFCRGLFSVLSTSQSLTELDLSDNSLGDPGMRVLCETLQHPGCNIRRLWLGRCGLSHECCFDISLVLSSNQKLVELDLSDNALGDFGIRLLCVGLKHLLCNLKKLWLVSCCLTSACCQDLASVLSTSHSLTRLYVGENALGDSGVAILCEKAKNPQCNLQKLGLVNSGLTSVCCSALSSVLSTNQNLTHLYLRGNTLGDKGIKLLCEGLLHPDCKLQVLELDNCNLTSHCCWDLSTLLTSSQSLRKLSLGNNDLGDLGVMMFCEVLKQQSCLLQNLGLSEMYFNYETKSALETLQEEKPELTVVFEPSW
UniProt P02452, sequence (whole entry, looked up): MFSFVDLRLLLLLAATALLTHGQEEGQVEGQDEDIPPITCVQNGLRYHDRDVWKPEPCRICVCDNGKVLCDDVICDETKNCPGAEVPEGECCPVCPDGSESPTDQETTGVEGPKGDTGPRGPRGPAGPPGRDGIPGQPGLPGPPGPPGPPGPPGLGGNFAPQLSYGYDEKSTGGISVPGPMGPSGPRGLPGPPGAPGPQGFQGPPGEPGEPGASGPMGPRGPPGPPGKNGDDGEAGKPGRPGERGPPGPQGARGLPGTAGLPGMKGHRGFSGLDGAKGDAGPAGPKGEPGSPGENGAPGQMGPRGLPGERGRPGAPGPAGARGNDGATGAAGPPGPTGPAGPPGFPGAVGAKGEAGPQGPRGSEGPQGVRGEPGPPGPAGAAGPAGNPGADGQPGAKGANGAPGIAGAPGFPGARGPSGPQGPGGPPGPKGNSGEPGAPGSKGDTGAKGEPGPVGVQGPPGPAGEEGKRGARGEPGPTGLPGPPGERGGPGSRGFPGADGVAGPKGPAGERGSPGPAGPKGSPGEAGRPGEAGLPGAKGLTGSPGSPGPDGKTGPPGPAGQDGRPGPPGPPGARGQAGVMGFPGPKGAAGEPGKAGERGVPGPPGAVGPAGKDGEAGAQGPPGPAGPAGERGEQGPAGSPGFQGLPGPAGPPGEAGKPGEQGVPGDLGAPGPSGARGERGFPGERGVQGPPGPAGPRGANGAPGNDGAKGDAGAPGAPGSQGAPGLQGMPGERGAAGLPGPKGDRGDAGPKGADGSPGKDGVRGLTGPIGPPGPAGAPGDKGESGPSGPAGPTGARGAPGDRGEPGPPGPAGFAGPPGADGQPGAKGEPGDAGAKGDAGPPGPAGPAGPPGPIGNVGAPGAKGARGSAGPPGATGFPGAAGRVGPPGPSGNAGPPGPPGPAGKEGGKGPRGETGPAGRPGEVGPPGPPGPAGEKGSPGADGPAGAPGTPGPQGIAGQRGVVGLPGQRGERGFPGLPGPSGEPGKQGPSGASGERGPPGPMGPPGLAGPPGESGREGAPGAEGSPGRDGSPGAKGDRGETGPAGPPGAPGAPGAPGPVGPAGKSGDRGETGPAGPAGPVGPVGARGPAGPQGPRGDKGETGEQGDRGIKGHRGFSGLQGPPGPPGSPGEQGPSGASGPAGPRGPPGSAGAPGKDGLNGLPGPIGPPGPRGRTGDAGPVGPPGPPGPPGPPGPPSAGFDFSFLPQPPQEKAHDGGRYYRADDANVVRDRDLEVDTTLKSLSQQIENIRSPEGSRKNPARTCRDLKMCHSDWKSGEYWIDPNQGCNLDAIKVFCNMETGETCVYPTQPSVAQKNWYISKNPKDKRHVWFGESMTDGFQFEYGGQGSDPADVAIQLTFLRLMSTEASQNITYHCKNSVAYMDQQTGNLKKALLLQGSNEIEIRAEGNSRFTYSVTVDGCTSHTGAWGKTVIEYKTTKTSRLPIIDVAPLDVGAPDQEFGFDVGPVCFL
UniProt Q9ULZ3, sequence (whole entry, looked up): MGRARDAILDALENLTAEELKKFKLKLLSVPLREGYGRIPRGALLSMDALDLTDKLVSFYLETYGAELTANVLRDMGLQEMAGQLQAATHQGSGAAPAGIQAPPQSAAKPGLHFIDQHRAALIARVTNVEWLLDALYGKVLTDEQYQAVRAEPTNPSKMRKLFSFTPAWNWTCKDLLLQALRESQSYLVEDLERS
UniProt P45481, sequence (whole entry, looked up): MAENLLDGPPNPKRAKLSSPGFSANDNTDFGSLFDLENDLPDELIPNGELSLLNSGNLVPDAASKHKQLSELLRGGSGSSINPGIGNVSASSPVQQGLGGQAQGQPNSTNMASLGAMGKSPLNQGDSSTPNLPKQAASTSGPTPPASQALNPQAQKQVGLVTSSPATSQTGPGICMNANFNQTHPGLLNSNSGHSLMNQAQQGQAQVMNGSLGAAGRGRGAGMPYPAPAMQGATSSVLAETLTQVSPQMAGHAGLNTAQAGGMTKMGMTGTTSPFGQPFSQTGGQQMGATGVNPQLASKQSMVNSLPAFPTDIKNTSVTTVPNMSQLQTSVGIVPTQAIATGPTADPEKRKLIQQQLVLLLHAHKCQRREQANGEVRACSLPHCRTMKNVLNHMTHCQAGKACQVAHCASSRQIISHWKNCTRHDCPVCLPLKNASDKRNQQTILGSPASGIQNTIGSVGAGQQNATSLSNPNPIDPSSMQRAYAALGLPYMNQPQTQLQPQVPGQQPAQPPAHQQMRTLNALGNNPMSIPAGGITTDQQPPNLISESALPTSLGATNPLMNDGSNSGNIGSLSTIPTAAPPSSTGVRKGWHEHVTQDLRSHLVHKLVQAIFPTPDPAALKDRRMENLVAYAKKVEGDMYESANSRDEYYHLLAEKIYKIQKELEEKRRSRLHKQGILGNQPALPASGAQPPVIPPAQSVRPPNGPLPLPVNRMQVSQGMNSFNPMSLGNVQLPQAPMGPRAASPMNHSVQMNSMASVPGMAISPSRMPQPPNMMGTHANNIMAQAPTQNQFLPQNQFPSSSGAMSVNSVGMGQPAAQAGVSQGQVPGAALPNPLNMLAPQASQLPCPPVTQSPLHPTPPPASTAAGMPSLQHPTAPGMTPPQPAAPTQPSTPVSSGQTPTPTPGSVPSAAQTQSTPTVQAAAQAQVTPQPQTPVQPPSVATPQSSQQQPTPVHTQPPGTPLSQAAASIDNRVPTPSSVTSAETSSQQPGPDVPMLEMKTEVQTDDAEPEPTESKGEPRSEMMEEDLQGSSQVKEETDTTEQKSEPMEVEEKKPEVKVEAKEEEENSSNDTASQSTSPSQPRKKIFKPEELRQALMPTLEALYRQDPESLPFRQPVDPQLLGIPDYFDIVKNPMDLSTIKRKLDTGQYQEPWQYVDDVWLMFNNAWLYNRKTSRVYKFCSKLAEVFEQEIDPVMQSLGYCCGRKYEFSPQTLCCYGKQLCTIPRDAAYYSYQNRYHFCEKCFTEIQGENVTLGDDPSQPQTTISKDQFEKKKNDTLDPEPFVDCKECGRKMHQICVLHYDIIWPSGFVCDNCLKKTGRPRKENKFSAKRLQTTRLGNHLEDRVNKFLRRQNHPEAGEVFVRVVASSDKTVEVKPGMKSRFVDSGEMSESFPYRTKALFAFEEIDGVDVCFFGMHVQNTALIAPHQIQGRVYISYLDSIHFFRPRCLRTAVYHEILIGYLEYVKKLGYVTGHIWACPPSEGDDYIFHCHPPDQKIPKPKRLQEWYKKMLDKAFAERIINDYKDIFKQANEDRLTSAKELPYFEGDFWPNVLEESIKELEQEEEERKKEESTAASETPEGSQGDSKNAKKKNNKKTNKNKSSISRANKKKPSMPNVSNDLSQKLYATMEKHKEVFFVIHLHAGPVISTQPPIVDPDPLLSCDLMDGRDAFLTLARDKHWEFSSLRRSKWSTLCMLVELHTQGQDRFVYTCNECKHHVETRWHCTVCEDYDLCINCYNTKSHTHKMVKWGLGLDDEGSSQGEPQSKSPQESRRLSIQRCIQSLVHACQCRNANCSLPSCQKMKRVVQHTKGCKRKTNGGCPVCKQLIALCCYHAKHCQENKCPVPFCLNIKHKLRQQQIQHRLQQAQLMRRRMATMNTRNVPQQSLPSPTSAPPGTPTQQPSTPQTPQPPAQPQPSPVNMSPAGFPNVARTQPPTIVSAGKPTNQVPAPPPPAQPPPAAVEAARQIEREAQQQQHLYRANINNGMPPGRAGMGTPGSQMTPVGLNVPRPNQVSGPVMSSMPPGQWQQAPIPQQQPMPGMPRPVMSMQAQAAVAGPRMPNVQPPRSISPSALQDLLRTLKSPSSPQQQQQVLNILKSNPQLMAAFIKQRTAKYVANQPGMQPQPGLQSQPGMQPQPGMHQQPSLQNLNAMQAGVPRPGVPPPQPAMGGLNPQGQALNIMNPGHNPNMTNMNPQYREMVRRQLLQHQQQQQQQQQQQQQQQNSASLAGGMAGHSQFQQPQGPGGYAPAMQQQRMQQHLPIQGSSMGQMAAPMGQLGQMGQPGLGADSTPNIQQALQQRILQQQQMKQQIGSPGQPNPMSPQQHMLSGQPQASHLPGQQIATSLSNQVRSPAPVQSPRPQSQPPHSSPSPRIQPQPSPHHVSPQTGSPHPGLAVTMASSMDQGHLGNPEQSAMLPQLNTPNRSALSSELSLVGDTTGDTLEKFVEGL

Molecule	target or system	test	test system	conditions	scale	quantity	value
RRANAALKAGELYKCILY	Collagen alpha-1(I) chain (Homo sapiens, UniProt P02452)	binding	–	–	–	Kd	10 nM
adrenomedullin	AM1 receptor, RAMP2 E101A	–	–	–	baseline: wild type	potency decrease	> 10 fold
dulaglutide	–	–	human	once weekly dosing	–	t1/2	~120 h
B1 (CCL1)	CCR8 F88A mutant	IP accumulation, agonist	–	–	–	EC50	10 nM
PYCARD PYD domain (Homo sapiens, UniProt Q9ULZ3)	NLRP3 PYD (Homo sapiens, UniProt Q96P20)	NMR titration	–	–	–	Kd	22000 nM
HIF1A fragment (Homo sapiens)	CBP residues 340-439 (Mus musculus, UniProt P45481)	fluorescence anisotropy	–	–	–	Kd	10 nM and 7.4 nM
HIF1A activation domain (Homo sapiens, UniProt Q16665)	CREBBP TAZ1 domain (UniProt P45481)	not stated	–	–	–	Kd	10 nM
enfortumab vedotin	–	–	rat	–	–	Vdss	0.04 to 0.1 L/kg
